{"data": "Measurements gathered from unrelated publications", "note": "Each numbered part is a random draw from the data of one study; scales do not carry over between parts.", "sequence of UniProt P08908 (whole entry, looked up)": "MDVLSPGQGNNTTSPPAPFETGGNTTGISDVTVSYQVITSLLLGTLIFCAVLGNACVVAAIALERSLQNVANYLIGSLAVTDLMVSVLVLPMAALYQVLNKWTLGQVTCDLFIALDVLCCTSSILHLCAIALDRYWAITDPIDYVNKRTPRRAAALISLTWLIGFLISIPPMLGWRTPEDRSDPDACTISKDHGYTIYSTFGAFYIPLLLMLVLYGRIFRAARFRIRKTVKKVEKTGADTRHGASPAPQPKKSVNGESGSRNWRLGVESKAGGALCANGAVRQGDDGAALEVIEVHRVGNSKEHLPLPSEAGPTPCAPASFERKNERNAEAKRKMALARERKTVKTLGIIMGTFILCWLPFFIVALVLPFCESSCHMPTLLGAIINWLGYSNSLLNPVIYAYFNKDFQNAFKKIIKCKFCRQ", "sequence of UniProt P9WI81 (whole entry, looked up)": "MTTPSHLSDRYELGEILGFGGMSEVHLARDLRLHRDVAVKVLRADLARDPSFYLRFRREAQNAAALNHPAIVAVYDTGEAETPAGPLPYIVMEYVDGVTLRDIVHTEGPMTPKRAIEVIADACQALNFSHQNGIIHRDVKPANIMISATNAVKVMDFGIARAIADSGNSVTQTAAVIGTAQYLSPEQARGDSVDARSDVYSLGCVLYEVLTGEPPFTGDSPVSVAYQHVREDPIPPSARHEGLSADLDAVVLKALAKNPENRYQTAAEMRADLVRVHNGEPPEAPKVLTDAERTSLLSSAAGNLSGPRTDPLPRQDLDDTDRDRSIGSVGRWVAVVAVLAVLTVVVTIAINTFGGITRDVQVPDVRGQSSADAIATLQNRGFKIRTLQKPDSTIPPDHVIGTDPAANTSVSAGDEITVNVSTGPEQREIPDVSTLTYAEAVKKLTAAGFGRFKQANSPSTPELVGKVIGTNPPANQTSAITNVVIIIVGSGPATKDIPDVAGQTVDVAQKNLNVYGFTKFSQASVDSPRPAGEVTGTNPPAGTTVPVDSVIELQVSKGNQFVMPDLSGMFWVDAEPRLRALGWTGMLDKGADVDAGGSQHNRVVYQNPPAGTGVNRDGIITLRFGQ", "sequence of UniProt P11229 (whole entry, looked up)": "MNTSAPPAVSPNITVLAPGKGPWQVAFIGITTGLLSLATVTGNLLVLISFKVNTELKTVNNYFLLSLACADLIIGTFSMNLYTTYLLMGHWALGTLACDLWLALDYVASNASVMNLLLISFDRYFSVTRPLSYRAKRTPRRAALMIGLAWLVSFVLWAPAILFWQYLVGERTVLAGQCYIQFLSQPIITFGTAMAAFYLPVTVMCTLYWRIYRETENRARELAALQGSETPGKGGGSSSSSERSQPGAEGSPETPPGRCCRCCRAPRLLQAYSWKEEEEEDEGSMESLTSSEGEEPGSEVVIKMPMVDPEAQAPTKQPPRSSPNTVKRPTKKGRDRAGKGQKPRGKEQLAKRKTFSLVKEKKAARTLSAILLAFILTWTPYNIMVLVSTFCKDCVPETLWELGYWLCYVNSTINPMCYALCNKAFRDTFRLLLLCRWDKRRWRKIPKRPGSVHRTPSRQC", "sequence of UniProt P61075 (whole entry, looked up)": "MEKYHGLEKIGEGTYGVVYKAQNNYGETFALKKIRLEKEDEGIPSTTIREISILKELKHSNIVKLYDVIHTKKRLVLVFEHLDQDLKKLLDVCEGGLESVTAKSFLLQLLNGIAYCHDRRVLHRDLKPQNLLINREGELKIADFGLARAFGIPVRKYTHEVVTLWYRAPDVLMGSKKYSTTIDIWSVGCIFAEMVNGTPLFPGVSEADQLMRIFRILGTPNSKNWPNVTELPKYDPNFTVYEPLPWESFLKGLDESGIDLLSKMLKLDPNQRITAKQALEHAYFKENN"}
{"data": "Block 1", "cell line": "mouse MPNST tumor cells", "technique": "high-content nuclear imaging", "measured": "cell number", "concentration": "10 µM", "time": "12 h", "setting": "mean of 2 replicates", "baseline": "plate mean", "reading": "higher = more cells"}
{"Compound": "C[C@]12CC[C@H]3[C@@H](CCC4=CC(=O)CC[C@@H]43)[C@@H]1CC[C@@H]2O", "nuclei count": "1.57 z-score"}
{"Compound": "CCC(=O)O[C@H]1CC[C@H]2[C@@H]3CCC4=CC(=O)CC[C@]4(C)[C@H]3CC[C@]12C", "nuclei count": "4.35 z-score"}
{"Compound": "COC(=O)[C@@H](N)CCCNC(=N)N[N+](=O)[O-]", "nuclei count": "0.401 z-score"}
{"data": "Other studies, line by line"}
{"Structure (SMILES)": "Cc1c(C(=O)O)cc(-c2ccc(C3CCNCC3)cc2)c2ccc(-c3ccc(C(F)(F)F)cc3)cc12", "target or system": "pknB (Mycobacterium tuberculosis, UniProt P9WI81)", "test": "cell-free assay, competition with immobilised ligand", "conditions": "1 µM", "measurement": "remaining binding", "value": "100%"}
{"Structure (SMILES)": "C[C@]12CCC(=O)C=C1CC[C@@H]1[C@@H]2C(=O)C[C@]2(C)C(=O)CC[C@@H]12", "target or system": "HaCaT", "conditions": "100 µM, 18 h", "measurement": "viability", "value": "117%"}
{"Structure (SMILES)": "CCCCN(CCCC)C(=O)CN1C[C@@H](c2cc(OC)c3c(c2)OCO3)[C@H](C(=O)O)[C@H]1CC(C)(C)CCC", "target or system": "CHRM1 (Homo sapiens, UniProt P11229)", "test": "binding, radioligand binding", "conditions": "10 µM", "measurement": "inhibition", "value": "12.4%"}
{"Structure (SMILES)": "C=CCCC(CN1C[C@H]2CC=CC[C@H]2C1)Oc1ncc(Cl)cn1 (some centres unmarked)", "test system": "human, microsomes or S9", "conditions": "2 µM, 0.5 h", "measurement": "remaining compound", "value": "6.81%"}
{"Structure (SMILES)": "CC(=O)C1=C(C)N(c2cccc(C(F)(F)F)c2)C(=O)N[C@H]1c1ccc(C#N)nc1", "target or system": "HTR1A (Homo sapiens, UniProt P08908)", "test": "ligand displacement", "conditions": "10 µM", "measurement": "inhibition", "value": "3.63%"}
{"Structure (SMILES)": "CCC(=O)O[C@H]1CC[C@H]2[C@@H]3CC[C@H]4CC(=O)[C@H](C)C[C@]4(C)[C@H]3CC[C@]12C", "target or system": "HaCaT", "conditions": "100 µM, 18 h", "measurement": "viability", "value": "107%"}
{"Structure (SMILES)": "c1ccc2c(c1)CNC(c1ccc3c(c1)OCO3)c1cccn1-2 (centres unmarked)", "test system": "human, microsomes or S9", "conditions": "2 µM, 0.5 h", "measurement": "remaining compound", "value": "32.3%"}
{"Structure (SMILES)": "Cc1c(NC(=O)c2cc(C(N)=O)nc3cc(F)ccc23)c(C(F)(F)F)nn1Cc1ccc(C#N)cc1", "target or system": "CRK2 (Plasmodium falciparum, UniProt P61075)", "test": "cell-free assay, competition with immobilised ligand", "conditions": "1 µM", "measurement": "remaining binding", "value": "91%"}
{"note": "A few entries again (other studies, line by line):"}
{"Structure (SMILES)": "CCC(=O)O[C@H]1CC[C@H]2[C@@H]3CC[C@H]4CC(=O)[C@H](C)C[C@]4(C)[C@H]3CC[C@]12C", "target or system": "HaCaT", "conditions": "100 µM, 18 h", "measurement": "viability", "value": "107%"}
{"Structure (SMILES)": "c1ccc2c(c1)CNC(c1ccc3c(c1)OCO3)c1cccn1-2 (centres unmarked)", "test system": "human, microsomes or S9", "conditions": "2 µM, 0.5 h", "measurement": "remaining compound", "value": "32.3%"}
